Assay results collected from several papers.
Numbered parts are unrelated; each lists some results of a single study. Changes are numbered by the printed parent chain.
UniProt Q9ZTX9, sequence (whole entry, looked up): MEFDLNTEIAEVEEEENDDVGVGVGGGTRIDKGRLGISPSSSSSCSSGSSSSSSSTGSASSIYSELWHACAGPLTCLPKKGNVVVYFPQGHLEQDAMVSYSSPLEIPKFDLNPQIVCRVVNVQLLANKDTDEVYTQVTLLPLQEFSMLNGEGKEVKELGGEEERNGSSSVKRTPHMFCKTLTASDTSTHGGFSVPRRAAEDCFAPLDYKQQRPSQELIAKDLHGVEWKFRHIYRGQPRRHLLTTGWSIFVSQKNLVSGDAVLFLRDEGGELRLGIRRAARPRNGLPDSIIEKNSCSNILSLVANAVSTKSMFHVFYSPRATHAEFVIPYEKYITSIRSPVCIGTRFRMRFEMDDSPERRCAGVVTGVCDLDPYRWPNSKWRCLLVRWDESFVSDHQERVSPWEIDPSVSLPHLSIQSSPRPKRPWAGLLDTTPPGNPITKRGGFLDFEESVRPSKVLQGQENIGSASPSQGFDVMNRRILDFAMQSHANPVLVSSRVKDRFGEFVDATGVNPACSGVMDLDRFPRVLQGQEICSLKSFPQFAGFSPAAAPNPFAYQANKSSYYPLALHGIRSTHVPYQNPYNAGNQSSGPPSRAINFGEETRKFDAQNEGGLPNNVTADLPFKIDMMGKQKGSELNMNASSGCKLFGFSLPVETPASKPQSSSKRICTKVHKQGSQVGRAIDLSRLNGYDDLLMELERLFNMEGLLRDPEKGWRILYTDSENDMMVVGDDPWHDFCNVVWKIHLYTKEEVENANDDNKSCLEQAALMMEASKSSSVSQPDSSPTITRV
UniProt Q9XED8, sequence (whole entry, looked up): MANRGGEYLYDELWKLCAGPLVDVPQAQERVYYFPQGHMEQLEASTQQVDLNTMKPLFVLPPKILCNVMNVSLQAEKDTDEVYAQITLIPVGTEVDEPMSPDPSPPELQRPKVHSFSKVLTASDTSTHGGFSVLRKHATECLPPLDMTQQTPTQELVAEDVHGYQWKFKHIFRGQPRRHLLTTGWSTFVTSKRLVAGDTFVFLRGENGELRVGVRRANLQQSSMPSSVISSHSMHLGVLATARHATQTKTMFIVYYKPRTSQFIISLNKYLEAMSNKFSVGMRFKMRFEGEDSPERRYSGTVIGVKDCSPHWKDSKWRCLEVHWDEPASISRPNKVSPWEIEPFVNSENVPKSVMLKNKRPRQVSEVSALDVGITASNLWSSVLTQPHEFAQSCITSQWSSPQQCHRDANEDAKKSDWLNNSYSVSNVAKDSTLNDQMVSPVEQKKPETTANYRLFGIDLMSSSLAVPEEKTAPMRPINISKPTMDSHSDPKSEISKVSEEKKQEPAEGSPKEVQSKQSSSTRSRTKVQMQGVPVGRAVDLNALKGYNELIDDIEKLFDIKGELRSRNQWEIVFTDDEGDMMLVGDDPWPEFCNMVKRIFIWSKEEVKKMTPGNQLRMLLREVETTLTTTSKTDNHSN
UniProt Q9XID4, sequence (whole entry, looked up): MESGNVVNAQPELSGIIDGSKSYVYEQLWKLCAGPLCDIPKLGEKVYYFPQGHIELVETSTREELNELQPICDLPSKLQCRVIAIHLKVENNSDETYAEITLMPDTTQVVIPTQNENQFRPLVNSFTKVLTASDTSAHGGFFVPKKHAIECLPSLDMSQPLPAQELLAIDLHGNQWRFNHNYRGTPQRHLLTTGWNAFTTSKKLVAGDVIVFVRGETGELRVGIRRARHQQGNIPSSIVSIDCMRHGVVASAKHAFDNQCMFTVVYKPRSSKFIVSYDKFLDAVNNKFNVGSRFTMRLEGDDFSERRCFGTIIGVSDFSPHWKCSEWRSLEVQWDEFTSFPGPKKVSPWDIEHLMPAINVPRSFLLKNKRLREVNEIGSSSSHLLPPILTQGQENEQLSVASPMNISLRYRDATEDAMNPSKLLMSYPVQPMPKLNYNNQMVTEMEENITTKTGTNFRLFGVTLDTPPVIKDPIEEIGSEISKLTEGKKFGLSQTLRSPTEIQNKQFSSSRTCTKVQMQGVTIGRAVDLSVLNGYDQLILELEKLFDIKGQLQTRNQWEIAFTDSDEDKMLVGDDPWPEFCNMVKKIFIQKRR
UniProt Q38825, sequence (whole entry, looked up): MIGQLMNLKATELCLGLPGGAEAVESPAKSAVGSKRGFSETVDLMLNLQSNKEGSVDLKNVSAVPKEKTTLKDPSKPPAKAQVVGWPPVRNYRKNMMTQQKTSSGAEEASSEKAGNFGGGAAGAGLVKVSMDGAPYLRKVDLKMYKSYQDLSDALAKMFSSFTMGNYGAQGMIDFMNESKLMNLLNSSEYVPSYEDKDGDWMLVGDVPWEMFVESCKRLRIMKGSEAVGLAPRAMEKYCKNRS
UniProt Q9SKN5, sequence (whole entry, looked up): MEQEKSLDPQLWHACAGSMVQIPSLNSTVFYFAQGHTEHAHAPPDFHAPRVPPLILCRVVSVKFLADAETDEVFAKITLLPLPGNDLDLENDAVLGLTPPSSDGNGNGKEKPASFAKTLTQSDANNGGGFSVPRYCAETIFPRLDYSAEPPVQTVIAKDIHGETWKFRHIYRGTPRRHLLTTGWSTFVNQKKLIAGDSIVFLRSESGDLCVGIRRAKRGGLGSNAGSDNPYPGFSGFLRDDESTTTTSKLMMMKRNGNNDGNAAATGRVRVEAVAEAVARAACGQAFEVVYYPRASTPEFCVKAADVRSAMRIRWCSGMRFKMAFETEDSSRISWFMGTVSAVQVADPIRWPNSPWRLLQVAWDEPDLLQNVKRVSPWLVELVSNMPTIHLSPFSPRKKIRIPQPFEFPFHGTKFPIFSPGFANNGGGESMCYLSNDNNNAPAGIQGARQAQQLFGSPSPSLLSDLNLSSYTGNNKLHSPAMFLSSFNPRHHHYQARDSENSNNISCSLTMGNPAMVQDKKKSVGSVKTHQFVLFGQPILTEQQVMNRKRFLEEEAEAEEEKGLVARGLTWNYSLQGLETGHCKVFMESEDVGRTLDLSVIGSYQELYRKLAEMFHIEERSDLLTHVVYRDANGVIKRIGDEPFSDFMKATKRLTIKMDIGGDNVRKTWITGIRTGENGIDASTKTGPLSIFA
UniProt Q84WU6, sequence (whole entry, looked up): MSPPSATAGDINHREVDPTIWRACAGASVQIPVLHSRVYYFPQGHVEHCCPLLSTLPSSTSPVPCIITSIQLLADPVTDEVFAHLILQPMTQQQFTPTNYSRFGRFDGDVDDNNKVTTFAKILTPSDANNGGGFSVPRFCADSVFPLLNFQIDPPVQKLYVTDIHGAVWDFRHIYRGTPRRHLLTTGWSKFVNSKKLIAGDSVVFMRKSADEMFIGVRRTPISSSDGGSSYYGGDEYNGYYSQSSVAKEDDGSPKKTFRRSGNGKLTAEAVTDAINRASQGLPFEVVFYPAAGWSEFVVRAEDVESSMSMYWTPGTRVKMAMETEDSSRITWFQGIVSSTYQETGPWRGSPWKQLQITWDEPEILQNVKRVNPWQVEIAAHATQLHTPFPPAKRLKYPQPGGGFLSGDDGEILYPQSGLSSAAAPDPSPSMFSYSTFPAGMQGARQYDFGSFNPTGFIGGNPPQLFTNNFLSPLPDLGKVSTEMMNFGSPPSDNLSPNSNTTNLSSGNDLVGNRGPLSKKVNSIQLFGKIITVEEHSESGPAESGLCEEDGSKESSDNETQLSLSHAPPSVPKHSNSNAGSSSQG
UniProt Q38831, sequence (whole entry, looked up): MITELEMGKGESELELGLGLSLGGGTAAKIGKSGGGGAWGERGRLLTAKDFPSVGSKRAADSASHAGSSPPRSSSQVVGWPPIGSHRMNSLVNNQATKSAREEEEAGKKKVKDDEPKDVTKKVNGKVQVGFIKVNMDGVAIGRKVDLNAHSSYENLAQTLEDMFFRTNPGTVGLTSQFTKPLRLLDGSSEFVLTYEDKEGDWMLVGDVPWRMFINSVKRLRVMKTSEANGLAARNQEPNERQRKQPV
UniProt Q38827, sequence (whole entry, looked up): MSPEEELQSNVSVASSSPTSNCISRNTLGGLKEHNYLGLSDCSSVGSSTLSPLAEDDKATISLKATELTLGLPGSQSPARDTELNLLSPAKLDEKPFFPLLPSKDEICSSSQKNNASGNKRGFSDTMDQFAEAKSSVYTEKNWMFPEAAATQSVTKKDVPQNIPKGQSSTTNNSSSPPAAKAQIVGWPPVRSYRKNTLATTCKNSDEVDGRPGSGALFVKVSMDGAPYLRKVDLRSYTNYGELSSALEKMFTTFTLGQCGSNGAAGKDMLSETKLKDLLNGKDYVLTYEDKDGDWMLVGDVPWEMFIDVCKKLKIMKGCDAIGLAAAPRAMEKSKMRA

Sample 1
Target: Histone acetyltransferase KAT6A, winged helix 1, GST fusion (KAT6A, Homo sapiens, UniProt Q92794, residues 1-85)
Technique: protein binding microarray
Form: double-stranded DNA, one strand shown
Matrix: in vitro
Tested at: not given
Notes: 8-mer, flanks averaged, mean of 2 arrays, mostly near background
Relative to: not given
Direction: higher = stronger binding
Residues (chain): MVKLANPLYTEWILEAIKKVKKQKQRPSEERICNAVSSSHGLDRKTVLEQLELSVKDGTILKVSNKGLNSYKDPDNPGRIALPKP
Strand | E-score
CCTCTAAG | -0.115
CTATCGTC | 0.00846
ATCCGGAG | 0.122
ACAAGGAA | -0.161
ATAGCACC | -0.11
ACGGGGTG | 0.18
GCAAAGTA | -0.106
CGGTGTGA | 0.0827
ACGGCAAA | 0.359
ACGTATGG | 0.0863
ACTGGTCC | 0.0126
GATCGCGA | 0.224
GAGCTTGA | -0.203
ATCGCCAC | 0.0622
AATCCTTG | -0.137
CTATCATA | 0.00556
CAACTCCG | 0.0667
CCATAGGC | 0.132
AAGCGAAT | 0.0558
ATCTAGGG | -0.293
GTCTGTTA | -0.0905
GTAGAGCA | -0.236
CAACGAAG | -0.125
GACGCGTA | 0.343
GTCGCGGA | 0.353

Sample 2
Target: Protein C-ets-1 (ETS1, Homo sapiens, UniProt P14921, residues 1-441, full length assumed)
Technique: protein-binding microarray
Form: double-stranded DNA, one strand shown
Matrix: in vitro
Tested at: not given
Notes: k-mer, scored over probes, only values ≥0.25
Direction: higher = stronger binding
Construct (chain): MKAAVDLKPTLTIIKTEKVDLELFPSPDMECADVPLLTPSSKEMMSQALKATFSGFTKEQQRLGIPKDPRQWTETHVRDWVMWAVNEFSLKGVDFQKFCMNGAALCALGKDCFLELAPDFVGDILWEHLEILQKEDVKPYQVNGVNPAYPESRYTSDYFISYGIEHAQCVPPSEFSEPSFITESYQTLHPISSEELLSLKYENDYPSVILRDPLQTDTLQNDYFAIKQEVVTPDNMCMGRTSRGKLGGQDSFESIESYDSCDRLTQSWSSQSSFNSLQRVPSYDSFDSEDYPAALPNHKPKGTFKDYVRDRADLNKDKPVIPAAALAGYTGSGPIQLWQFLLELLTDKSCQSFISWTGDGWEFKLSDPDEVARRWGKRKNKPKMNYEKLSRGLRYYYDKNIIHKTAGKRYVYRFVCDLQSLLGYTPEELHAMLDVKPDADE
Strand | E-score
AACCGGTA | 0.371
ATTTCCCG | 0.436
GATGGGAA | 0.294
AAGCATCC | 0.398
GCACAGGA | 0.381
ATGTTCCG | 0.322
ATCCAGGA | 0.309
AGGATGTG | 0.442
CGGACGCC | 0.378
GGTGGAAA | 0.26
ACGCGGAT | 0.273
CCGGAAGA | 0.478
GGTCCGGA | 0.364
CCAGCCGG | 0.277
CGGAACAG | 0.366
CGGACGGA | 0.387

Sample 3
Sequence: B1 (IAA6)
Technique: two-hybrid
Relative to: out of 4 tests
Direction: higher = firmer interaction
B1: IAA6 (Arabidopsis thaliana, UniProt Q38824); chain MAKEGLALEITELRLGLPGDNYSEISVCGSSKKKKRVLSDMMTSSALDTENENSVVSSVEDESLPVVKSQAVGWPPVCSYRRKKNNEEASKAIGYVKVSMDGVPYMRKIDLGSSNSYINLVTVLENLFGCLGIGVAKEGKKCEYIIIYEDKDRDWMLVGDVPWQMFKESCKRLRIVKRSDATGFGLQQD
partner | notes | positive tests
ARF17 (Arabidopsis thaliana, UniProt Q84WU6) | weak activation fusion | 0
IAA9 (Arabidopsis thaliana, UniProt Q38827) | – | 1
ARF12 500-593 (Arabidopsis thaliana, UniProt Q9XID4) | – | 0
ARF10 575-693 (Arabidopsis thaliana, UniProt Q9SKN5) | – | 0
IAA13 (Arabidopsis thaliana, UniProt Q38831) | – | 0
IAA7 (Arabidopsis thaliana, UniProt Q38825) | – | 0
ARF4 660-788 (Arabidopsis thaliana, UniProt Q9ZTX9) | – | 0
ARF9 519-638 (Arabidopsis thaliana, UniProt Q9XED8) | weak activation fusion | 0

Sample 4
Target: CCNE1, cyclin fold, Cln2 fusion (human)
Technique: yeast growth competition, sequencing
Matrix: yeast
Notes: strong parent motif
Relative to: not given
Direction: higher = stronger binding
Parent: CDKN1B docking peptide (human); PSACRNLFGPVDH
Variant | normalised enrichment score
V11T | 2.94
L7S | 0.322
C4R | 3.07
F8I | 0.508
P10G | 3.05
D12P | 2.73
V11C | 2.41
R5F | 0.652
P1E | 3
N6V | 4.97
S2T | 2.75
A3Y | 3.79
A3N | 0.272
P10M | 1.63
N6W | 1.45
H13A | 2.73
F8T | 0.192
G9A | 1.7
D12W | 2.35
C4H | 0.141
P10S | 3.33
L7C | -0.765

Sample 5
Target: RING finger protein unkempt homolog, zinc fingers 1-6, GST-SBP tag (UNK, Homo sapiens, UniProt Q9C0B0, residues 30-357)
Technique: RNA Bind-n-Seq
Form: RNA
Matrix: in vitro
Tested at: not given
Notes: RNA with constant flanks, human and mouse sites, ends assumed
Relative to: input RNA pool
Direction: higher = stronger binding
Residues (chain): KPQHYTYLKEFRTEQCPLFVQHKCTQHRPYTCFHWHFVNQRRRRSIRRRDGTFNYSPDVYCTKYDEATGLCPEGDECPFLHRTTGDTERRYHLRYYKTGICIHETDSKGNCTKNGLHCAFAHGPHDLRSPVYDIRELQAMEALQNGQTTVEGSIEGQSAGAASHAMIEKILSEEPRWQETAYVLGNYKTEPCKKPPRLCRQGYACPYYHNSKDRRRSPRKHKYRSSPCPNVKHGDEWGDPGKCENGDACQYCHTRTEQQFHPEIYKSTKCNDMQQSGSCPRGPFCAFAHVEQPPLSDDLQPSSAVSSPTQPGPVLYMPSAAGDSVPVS
Strand | bound/input enrichment
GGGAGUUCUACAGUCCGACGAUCUUUCAAAGAAACAGCUGUGCUAAUGUCUUUGGUUUCCCGAUGAGUGUACACUACUGUAUAAUUUAUGUUUACCAUAUGAGUCUUGAAACACUACAGAUAUUUUGAAUAUCAGUCAUGAUGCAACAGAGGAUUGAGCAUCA | 0.0992 ratio
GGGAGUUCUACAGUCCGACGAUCAUCGUGGGAGCACUGAUGGCAAGUGGAAAAGAAGUAGCAGGAAAAAUUCCCAAAGGGAAGUUAGUCGACUUUGAAGCUAUGACAGCCCCUGGUUCAGAGGCCUUUAGCAAAGUCGCCAAACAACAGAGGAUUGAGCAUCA | 0.234 ratio
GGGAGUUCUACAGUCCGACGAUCGAAUACCAAAGUGAAGGACUUUGUGUCAUUCAGUAAAAUUUUCUUUUUUCAUAUCCUAAGUAGCUCCCAUUCCCUCACCUUUUCAAUCAGAAUUAACAAAUUCAAGCCUUCAGUAAAGUACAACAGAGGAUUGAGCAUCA | 0.36 ratio
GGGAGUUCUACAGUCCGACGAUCAGGAAUCAAGUGCUACCACUUUCUGAUGUGGAUACAACUUCUGCUACAGAUAUUCAAAGAGUAGCUGUGCUAUGUGUUUCCAGAUCUGCUUAUUGUUUGGGUUCAAGCCACCCCAGAGGACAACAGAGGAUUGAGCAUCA | 0.0957 ratio
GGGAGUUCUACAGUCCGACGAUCUAUGGGGACCAAUACAGAGCAACUGAUUUUGUUGUUCCUGGGCCUGGAAAAGUAGAGAUAACCUACACACCAAAAGAUGGAACUCAGAAGGUGACAUACAUGGUACAUGACUUUGAAGAACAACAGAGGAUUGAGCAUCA | 0.156 ratio
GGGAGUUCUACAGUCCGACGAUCGGUGAGCUUCAUUUUCUCCAAAUUGGAGGAACCUGUGAUGAUAUUGAUGAAGCUGAUAUUCUGGUAGAUGGAUCCCUUUCUAAAGGAAUAGAACCAGCUCUAGAAGGUUCCAGACCUUUACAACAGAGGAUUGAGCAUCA | 0.195 ratio
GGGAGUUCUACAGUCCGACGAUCUGGCUUCGGGGCGUCUACCGCUUUGCCACUGAUAGGAAUGACUUCCGGAGGAACUUGAUACUAAAUUUGGGACUCUUUGCUGCGGGAGUUUGGCUGGCCAGGAACUUGAGUGACAUUGACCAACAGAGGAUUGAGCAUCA | 0.169 ratio
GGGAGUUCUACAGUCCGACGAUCAACCGGAAGGGCCUGAUAGCCGCCAUCUGUGCAGGUCCUACUGCUCUGUUGGCUCAUGAAAUAGGUUUUGGAAGUAAAGUUACAACACACCCUCUUGCUAAAGACAAAAUGAUGAAUGGACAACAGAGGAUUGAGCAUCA | 0.44 ratio
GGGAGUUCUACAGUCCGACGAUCGACUACCAGGCUGCGGGCGAUGAUGAGAUCUCAUUUGACCCUGAUGACAUCAUCACCAACAUCGAGAUGAUUGACGACGGCUGGUGGCGCGGGGUGUGCAAGGGCCGGUACGGGCUCUUCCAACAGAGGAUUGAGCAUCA | 0.181 ratio
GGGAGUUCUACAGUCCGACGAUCCAACAGGCUGGCCAUGAUGAAGGGGUUCUGGAUCGUUUGGUAGAUAGGAGGGAACGGCCAUUAGAAGGUGGCCGAACAAAUUCCAAUAACAACAACAGCAAUCCAUGUUCAGAACAAGAUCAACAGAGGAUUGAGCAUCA | 0.173 ratio
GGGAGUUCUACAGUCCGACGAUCGAGGUAGAUCAAGAGCUCGUUGAACUACUAGUGAAAGAAACGGAAGCAAGAUUUCCAGAUGUAGCAAAUGGGUUUAUUGAGGAAAUAAUUCAUUUUAAGAAUUAUUAUGAUCUGAAUGUACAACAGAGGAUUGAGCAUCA | 0.593 ratio

Excerpt of the above (sample 2):
Strand | E-score
GATGGGAA | 0.294
AAGCATCC | 0.398
GCACAGGA | 0.381
ATGTTCCG | 0.322
ATCCAGGA | 0.309
AGGATGTG | 0.442
CGGACGCC | 0.378
